Experimental data pooled from the literature.
Each numbered part is a random draw from the data of one study; scales do not carry over between parts.

Sample 1
Target: RNA binding protein fox-1 homolog 2, RRM domain, GST-SBP tag (RBFOX2, Homo sapiens, UniProt O43251-10, residues 100-194)
Method: RNA Bind-n-Seq
Form: RNA
Medium: in vitro
Concentration: 365 nM
Notes: natural RNA segment, single round, ends assumed
Reference: no-protein control
Direction: higher = stronger binding
Shared flanks, not repeated: GGGAGUUCUACAGUCCGACGAUC … UGGAAUUCUCGGGUGCCAA
Target sequence (chain): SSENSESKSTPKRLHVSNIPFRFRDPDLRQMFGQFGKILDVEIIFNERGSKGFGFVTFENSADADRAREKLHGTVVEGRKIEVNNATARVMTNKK
Oligonucleotide	RBNS enrichment (R)
UUGCUUGUUCUCCCCUAUAAAGUAGUAGGCUCCACACUUGUUUUUGUGGUAAACAGGAGCAGUCACUCCUCUGUCUAAGAACUGGGGGCAAGAAAGAGCAAAUUUGUCCU	0.35
CAUUGUCUGUGAAGUGAGACCUUCCUUUUACUUUUCUUCUAUUGCCUCUGAGAGCAUCAGGCCUAGAGGCCUGACUGCCAAGCCAUGGGUAGCCUGGGUGUAAAACCUGG	0.293
ACAGCAGAUUCUUGCAGUAUCAAGUAUACGCCUGUGGCAGAAUAAGUAUCUGUAAAUACAUGUUUAAAGAUGGAUUUUGUUUAAAAAAUCUAAAGGAACAAGUGUGUCGU	0.435
AUGGCAUGAAGUGAACUAUGGCCUUUUAUUUCCUUCCAGUGUGAACACAGCAGGUGUGAGAUGUCAUCUUGGAAGACAGGCCUUGCAGAAAUAGGCCUACAUCCAAAAUA	1.96
AGUCUCACUUUUAAUUAUAAAACCAGAAAGCUGCAAUUUCUUUUCCCUCUACCCCUUAUUUGUUGGCUUCUUUGUUUUUUUAAUGUCAAAUCUGUUUGUUUUUACCAAGA	0.728
CGACAAGGAAAGUGAUGUGGAGAUUUAGAGCAGCAUGGAUGCUGUGUCCCCAAGAGUUCCUUGUCACCUCUGUGGUGGGAAGGAAAGUAUGGUUUCCCCAGGUCUGAACU	1.74
GAAAGGCUGAACCUCAGGGCUCCACCCACGUCAUGGCCACGCCCCCUCUAUUACAAGAGUCCGCCUUGCCUGAGUCCUCCCUGCUGAGUAAAGCUACCCUCCCAGGUCCA	0.299
GUGUGUAUAUGUAAUUUUCUUAAUGUCUUAAGAAAUCUGGCUAUAUAAGUUCCACUGUACAAUGUCCUUUUCAGGUGGAAUUUUCUCUAUUGCUUUGAUAAACAGAGUUG	0.646
CAGCCAGGUUCUUCAGGUGCUUCUUAAUCAGCCCCUCUGCUCCAGAUGGACCUUUCCCUCCAUGUAGCUUUUCCUCAGAGUCGAUGAGAAGUGAAUGUUGUCUUUGGUCA	0.365
CCAGUGGAGGUUUGUCGGGCACCAGCCAGCGUAGCAGGGUCGGGAAAGGCCACCUGUCCCACUCCUACGAUACGCUACUAUAAAGAGAAGACGAAAUAGUGACAUAAUAU	0.346
CCUGUCUCAGAAAAAAAGAAAAUUCAAGGCCAGUUAAGACAAAAUGCUAUGACUUUGAAAUUCACAGAAAGAAAUAACAGUUUAGAUUAGGUCUUCAGGUAUUCAGGAUA	0.327
UGAAGAUUUCCUUCUGCAGUAUUUUCUUGAGAUAACAUAUUUGCUUUCCACCAUGUCCUGGGGGCCUGGUUAGUCCCUGGCCAUGGAGUGUGGUGGGAUGGCUGUCUUCU	0.249

Sample 2
Target: Interferon regulatory factor 7, full length, phosphomimetic (IRF7, Homo sapiens, UniProt Q92985, residues 1-503, S101K/S471D/S472D/S475D/S476D/S477D/S483D/S484D/S487D)
Method: protein-binding microarray
Form: double-stranded DNA, one strand shown
Medium: in vitro
Concentration: 250 nM
Notes: 60-bp whole probe
With: salmon DNA 0.4 mg/ml
Reference: random background probes
Direction: higher = stronger binding
Shared flanks, not repeated: GCCTAGCAC … GTCTTGATTCGCTTGACGCTGCTG
Residues (chain): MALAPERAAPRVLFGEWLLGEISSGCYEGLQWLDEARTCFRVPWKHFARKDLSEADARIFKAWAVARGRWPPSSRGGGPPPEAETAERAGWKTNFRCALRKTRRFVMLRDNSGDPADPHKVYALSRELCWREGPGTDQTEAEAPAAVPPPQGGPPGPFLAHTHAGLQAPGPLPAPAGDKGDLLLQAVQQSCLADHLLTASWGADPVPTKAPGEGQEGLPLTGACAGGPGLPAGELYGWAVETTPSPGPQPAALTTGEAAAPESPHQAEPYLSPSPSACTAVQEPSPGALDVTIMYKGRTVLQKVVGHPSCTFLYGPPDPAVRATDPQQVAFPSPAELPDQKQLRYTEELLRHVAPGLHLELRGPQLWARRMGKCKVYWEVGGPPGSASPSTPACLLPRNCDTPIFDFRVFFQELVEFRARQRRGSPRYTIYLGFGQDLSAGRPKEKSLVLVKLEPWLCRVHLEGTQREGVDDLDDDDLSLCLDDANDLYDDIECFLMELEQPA
Oligonucleotide	log fluorescence [z-score]
TCCATTTTGGTTTTCATTATGTGCTAG	1.22
CACGGTCTCCTTATCCTGACGTGCTAG	0.419
TTAGATTTCAGACGGGATTAGTGCTAG	-0.072
GAGGGTATCGGTATCGGGACGTGCTAG	0.558
GACGGACTGCTACTACTGACGTGCTAG	-0.593
TTTTTTTTTTTTTTTGTATTGTGCTAG	0.653
TCATGTGCCCATCTCTGACTGTGCTAG	-0.473
TTAGATATCAGTTTTGATTAGTGCTAG	0.878
GATGATCTCAGTCTCGAGACGTGCTAG	0.288
TGAGTGAAAGGCCCATACATGTGCTAG	-0.435
TTAGGTATCGACTATTGGTTAGTGCTA	0.216
TCAATTTTTTTTCACTAACTGTGCTAG	0.271
TCATGTTTTTTTCTACTTCTGTGCTAG	1.56
GACGGTCTCCGTCTCCTGACGTGCTAG	-0.132
TTAAGTTTCGGTTTCGGTTAGTGCTAG	14.9
GACGGTATCCTTCTCCTCACGTGCTAG	0.211
GACGATTTCGGGTTCCGAGACGTGCTA	1.87
GACGGTCTCGGTCTCGGGCCGTGCTAG	0.346
TTAGCTATCGGACTGGGTTAGTGCTAG	-0.258
GACTGTTTCGGGTTTCGGGACGTGCTA	7.13
GCCGATATCAGTATCGAGACGTGCTAG	0.473
TTAGATATAGGGTATCGATTAGTGCTA	0.41
TCCCTATTATATATATCATAGTGCTAG	1.19
TCAACTTTGGCATGTCTTACTGTGCTA	-0.355
TCATTTATACCTTAGGTACTGTGCTAG	1.32

Sample 3
Target: Ras GTPase-activating protein-binding protein 1, full length (G3BP1, Homo sapiens, UniProt Q13283)
UniProt Q13283, sequence (whole entry, looked up): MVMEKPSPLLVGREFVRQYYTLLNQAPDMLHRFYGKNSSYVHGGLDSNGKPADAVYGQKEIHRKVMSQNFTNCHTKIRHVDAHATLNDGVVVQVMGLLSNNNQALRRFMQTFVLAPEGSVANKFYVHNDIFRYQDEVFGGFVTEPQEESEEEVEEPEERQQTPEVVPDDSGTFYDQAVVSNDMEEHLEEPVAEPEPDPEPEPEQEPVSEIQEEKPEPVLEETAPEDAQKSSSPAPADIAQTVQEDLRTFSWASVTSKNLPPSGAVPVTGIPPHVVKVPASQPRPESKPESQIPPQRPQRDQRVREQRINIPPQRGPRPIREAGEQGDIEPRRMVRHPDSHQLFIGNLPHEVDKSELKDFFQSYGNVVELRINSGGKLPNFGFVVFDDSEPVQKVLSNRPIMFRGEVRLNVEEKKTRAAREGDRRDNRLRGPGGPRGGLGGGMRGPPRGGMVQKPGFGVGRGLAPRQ
Method: RNA Bind-n-Seq
Form: RNA
Medium: in vitro
Concentration: 200 nM
Notes: whole 134-nt RNA, ends assumed
With: 150 mM KCl
Reference: input library
Direction: higher = stronger binding
Shared flanks, not repeated: GGGAGUUCUACAGUCCGACGAUC … UGGAAUUCUCGGGUGUCAAGG
Oligonucleotide	log2 enrichment
UCAAGUCCUGUGCUACACAUCGUAUGUACCGAAUCGGGGCCCGGCCCGGCCCGGAAAGUAUUAUGUUACGCCGUUCGGAUCUGCACUUCC	-0.584
CACAGACAACACGCACCCACACAGACACAGAGGGAAAAGGUUGGGAUGGGGACAGGGUGCACAGCAGGGCGGGGUAGGACCCCAGCCCCU	1.58
CAAGUCCUGUGCUACACAUCGUAUGUACCGAAUCGGUUUUUUUGGUUUUUGGAGGAAAGUAUUAUGUUACGCCGUUCGGAUCUGCACUUC	-0.793
AGUCCUGUGCUACACAUCGUAUGUACCGAAUCGGGCCCCGGGCCCCGGGGCCCCGGGGAAAGUAUUAUGUUACGCCGUUCGGAUCUGCAC	-2.51
AGUCCUGUGCUACACAUCGUAUGUACCGAAUCGGGAAAAAGGGUGGGAAAAAAAGGGAAAGUAUUAUGUUACGCCGUUCGGAUCUGCACU	-0.219
GUCCUGUGCUACACAUCGUAUGUACCGAAUCAAACCCCCCCAAACCCCCAAACCCAAAAAAGUAUUAUGUUACGCCGUUCGGAUCUGCAC	-0.185
GCAGGAAGUAAAAACAAAUGGAAAUGCUUCGGAUAGUGGCAGGGGUGCGGGUUGCUAAGGAAAGGGUGGGAUGGGAGUGGGUAAAGAGUU	0.912
CAAGUCCUGUGCUACACAUCGUAUGUACCGAAUCGGGCCCGGCCCGGGGCCCGGGAAAGUAUUAUGUUACGCCGUUCGGAUCUGCACUUC	-0.702
CACAGACAACACGCACCCACACAGACACAGAGGGAAGGGGUUGGGAUGGGGACAGGGUGCACAGCAGGGCGGGGUAGGAGCCCAGCCCCU	1.78
UCCUGUGCUACACAUCGUAUGUACCGAAUCGGGAAAAAGGGAAAAAAAGGGAAAAAGGGAAAGUAUUAUGUUACGCCGUUCGGAUCUGCA	-0.385
UAACUUUAGAGGAGGAUCUGAUGGAUAUGGCAGUGGACGUGGAUUUGGGGAUGGCUCUAAUGGGUAUGGAGGAGGACCUGGAGGUGGCAA	0.299
UCAAGUCCUGUGCUACACAUCGUAUGUACCGAAUCGGGAGGGAGGGUUUUUGGGAAAGUAUUAUGUUACGCCGUUCGGAUCUGCACUUCC	0.793
GCAGGAAGUAAAAACAAACGGAAAUGCUUCGGAUAGUGGCAGGGGUGGGGGUUGCUAAGGAAAGGGUGGGAUGGGAGUGGGUAAAGAGUU	0.905
UCCUGUGCUACACAUCGUAUGUACCGAAUCGGGGUUUUUUUGGGGAAAGGGGUUUGGGGAAAGUAUUAUGUUACGCCGUUCGGAUCUGCA	0.563

Sample 4
Target: Histone acetyltransferase KAT6A, both winged helices, GST fusion (KAT6A, Homo sapiens, UniProt Q92794, residues 1-181)
Method: protein binding microarray
Form: double-stranded DNA, one strand shown
Medium: in vitro
Concentration: not given
Notes: 8-mer, flanks averaged, mean of 2 arrays, mostly near background
Reference: not given
Direction: higher = stronger binding
Construct (chain): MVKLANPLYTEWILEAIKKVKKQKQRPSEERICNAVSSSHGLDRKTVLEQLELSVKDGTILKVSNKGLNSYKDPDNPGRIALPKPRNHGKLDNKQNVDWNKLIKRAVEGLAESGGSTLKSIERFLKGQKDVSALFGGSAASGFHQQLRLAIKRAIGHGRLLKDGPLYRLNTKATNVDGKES
Oligonucleotide	E-score
CGCGTCTA	0.283
ACGATGTG	-0.051
AAGATTCA	-0.0743
AGCCCGTA	0.116
ACATCGTA	0.0707
AAAACGTT	0.0887
ATCAGTTC	-0.0424
GACTTTAC	0.0108
ACTGAACT	-0.0408
ACCGGCCT	0.11
CTTTCCCA	-0.15
AATTCCTA	-0.221
AATCCAAT	-0.0331
AGTGTCGG	0.154
AGCGTTTA	0.168
ACACACTA	-0.0139
GAGCATCA	-0.11
GCCGAGCA	0.183
GAGCGCCA	0.185
ACTGGAAT	-0.212
GCGTAGTA	0.0962
TCAAGAAA	-0.197
